Measured values gathered from unrelated publications.
Lines come from different studies, so protocols differ. “And” joins repeats or separate records; there may be more than shown. Numbers after ± are the reported error.
Genome polyprotein NS3 helicase domain: Genome polyprotein, NS3 helicase domain (Hepatitis C virus genotype 1b, UniProt Q9WMX2)
UniProt Q96P65, sequence (whole entry, looked up): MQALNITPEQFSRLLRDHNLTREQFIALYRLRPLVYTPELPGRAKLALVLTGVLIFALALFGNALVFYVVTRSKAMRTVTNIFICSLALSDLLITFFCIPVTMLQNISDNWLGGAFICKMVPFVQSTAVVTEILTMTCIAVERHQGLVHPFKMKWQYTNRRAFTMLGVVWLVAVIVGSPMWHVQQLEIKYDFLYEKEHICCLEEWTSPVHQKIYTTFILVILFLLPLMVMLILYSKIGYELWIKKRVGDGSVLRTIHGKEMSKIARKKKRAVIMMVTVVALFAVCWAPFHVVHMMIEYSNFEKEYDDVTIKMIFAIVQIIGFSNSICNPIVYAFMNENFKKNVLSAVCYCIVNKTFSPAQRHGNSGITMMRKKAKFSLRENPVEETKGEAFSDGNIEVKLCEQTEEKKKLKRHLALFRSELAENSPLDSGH
UniProt P53778, sequence (whole entry, looked up): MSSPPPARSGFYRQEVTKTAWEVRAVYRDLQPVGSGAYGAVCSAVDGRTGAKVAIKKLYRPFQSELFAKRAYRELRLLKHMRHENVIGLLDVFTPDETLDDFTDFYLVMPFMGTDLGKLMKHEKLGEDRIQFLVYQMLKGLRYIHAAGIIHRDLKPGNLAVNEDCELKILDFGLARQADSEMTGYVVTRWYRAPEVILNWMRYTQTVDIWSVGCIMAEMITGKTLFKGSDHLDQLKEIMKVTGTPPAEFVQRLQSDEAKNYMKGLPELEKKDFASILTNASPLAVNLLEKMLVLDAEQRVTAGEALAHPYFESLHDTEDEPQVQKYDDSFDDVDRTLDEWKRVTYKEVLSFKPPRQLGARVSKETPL
UniProt P28223, sequence (whole entry, looked up): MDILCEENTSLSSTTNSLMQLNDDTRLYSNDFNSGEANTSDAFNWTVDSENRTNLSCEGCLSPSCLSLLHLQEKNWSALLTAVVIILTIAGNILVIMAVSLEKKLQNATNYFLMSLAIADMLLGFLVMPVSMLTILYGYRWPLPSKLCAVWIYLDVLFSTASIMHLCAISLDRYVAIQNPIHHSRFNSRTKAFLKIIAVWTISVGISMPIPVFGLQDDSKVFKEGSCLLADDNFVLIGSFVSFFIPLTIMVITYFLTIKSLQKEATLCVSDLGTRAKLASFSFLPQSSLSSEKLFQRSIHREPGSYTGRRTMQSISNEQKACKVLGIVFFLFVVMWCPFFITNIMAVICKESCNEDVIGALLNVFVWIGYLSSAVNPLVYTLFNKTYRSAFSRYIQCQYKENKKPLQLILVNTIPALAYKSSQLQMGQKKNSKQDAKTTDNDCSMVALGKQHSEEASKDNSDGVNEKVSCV
UniProt Q9Y5N1, sequence (whole entry, looked up): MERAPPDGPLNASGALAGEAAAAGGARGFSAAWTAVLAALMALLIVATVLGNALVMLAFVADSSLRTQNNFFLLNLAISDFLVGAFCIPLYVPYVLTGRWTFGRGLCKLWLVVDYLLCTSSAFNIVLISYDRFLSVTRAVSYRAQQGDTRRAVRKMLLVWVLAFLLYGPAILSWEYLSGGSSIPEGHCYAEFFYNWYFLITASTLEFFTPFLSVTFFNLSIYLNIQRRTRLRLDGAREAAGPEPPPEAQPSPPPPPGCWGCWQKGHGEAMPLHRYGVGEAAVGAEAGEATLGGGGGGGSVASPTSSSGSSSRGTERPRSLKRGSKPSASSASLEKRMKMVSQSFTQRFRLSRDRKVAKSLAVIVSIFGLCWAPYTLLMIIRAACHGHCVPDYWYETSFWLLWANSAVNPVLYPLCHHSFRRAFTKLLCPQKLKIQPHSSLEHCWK
UniProt P43088, sequence (whole entry, looked up): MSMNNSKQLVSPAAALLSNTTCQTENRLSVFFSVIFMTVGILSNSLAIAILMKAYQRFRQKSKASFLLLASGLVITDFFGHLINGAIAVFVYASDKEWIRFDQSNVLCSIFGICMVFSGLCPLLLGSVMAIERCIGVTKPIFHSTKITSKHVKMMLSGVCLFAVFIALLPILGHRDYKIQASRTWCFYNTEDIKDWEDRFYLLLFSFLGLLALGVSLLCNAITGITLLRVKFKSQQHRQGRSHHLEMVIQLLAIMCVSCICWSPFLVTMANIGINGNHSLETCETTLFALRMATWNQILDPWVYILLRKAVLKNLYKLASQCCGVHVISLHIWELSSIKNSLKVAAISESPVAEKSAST

Structure (SMILES) | target | assay | system | conditions | how to read | inhibition
CN(C(=O)n1cnc(-c2ccc[n+]([O-])c2)c1)C1CCCCC1 | GABA transporter, rat | binding |  | 10 µM, together with: [3H]GABA |  | -4%
FC(F)(F)c1cccc(Nc2nc(NCCOc3ccccc3)nc3[nH]cnc23)c1 | MAPK12 (Homo sapiens, UniProt P53778) | enzyme activity, inhibitor, Thermo Fisher kinase screening |  | 5 µM |  | 6% and 12%
CN1CCN(c2cc(-c3ccncc3)c(-c3ccc4ccccc4c3)nn2)CC1 | CRHR1 (Homo sapiens, UniProt P34998) | antagonist, FLIPR |  | 10 µM |  | 1.9%
NCCc1c[nH]c2ccccc12 | Genome polyprotein NS3 helicase domain | DNA binding, inhibitor | hepatitis C virus | 100 µM, together with: Cy5-dT15 DNA |  | 0%
O=C(Nc1cccnn1)N1CCN([C@@H]2CCOc3cc(C(F)(F)F)ccc32)CC1 | HTR6 (Homo sapiens, UniProt P50406) | Cerep BioPrint |  | 20 µM, human 5-HT6 |  | 50%
c1ccc(C(NCCNC(c2ccccc2)c2ccccc2)c2ccccc2)cc1 | Cyclin-dependent kinase 1, with cyclin B1 (CDK1, Homo sapiens, UniProt P06493) | enzyme activity |  | 10 µM, Eurofins selectivity panel |  | 16%
CC1=NN=C(c2ccc(N)cc2)c2cc3c(cc2C1)OCO3.Cl | Genome polyprotein NS3 helicase domain | DNA binding, inhibitor | hepatitis C virus | 100 µM, together with: Cy5-dT15 DNA |  | 3%
CC(=O)NC[C@H]1[C@H](O)[C@H](O)[C@@H]2[C@H](O)C[C@@H](CO)N21 | Spodoptera litura β-N-acetylglucosaminidase |  | crude enzyme | 0.00627 µM, run 1, together with: p-nitrophenyl GlcNAc |  | 36.7%
CN1CCN(c2nc(N)c3ccccc3n2)CC1 | HTR2A (Homo sapiens, UniProt P28223) | radioligand binding, radioligand competition binding |  | 0.1 µM, first replicate | baseline: control specific binding | 4%
Cc1ncc(C)n2nc(/C=C/c3nc(N4CCCC4)cc(N4CCOCC4)n3)nc12 | L-type calcium channel dihydropyridine site | radioligand binding |  | 10 µM |  | 19%
CCCN(CCC)CCc1ccc(O)c(O)c1 | Genome polyprotein NS3 helicase domain | DNA binding, inhibitor | hepatitis C virus | 100 µM, together with: Cy5-dT15 DNA |  | 0%
O=C(Nc1cnccc1Cl)N1CCN(Cc2ccc3c(c2)OC(F)(F)O3)CC1 | QRFPR (Homo sapiens, UniProt Q96P65) |  |  | concentration not given |  | -1% and -9%
Cn1cccc1-c1cccnc1 | HRH3 (Homo sapiens, UniProt Q9Y5N1) | binding |  | 50 µM |  | 5.58%
Ic1cccc2cnccc12 | NMDA receptor phencyclidine site (rat) | radioligand binding, inhibitor |  | 10 µM |  | 10%
CC(C)(C)NCC(O)c1cc(O)cc(O)c1 (stereo not drawn) | Gag polyprotein, nucleocapsid protein p7 (gag, Human immunodeficiency virus type 1 group M subtype B, UniProt P04591) | NCp7-RNA binding, AlphaScreen | HIV-1 | 45 µM |  | > 50%
O=C(O)CC(Cc1ccccc1)C(=O)O (stereo not drawn) | N-acyl-aromatic-L-amino acid amidohydrolase (carboxylate-forming) (Acy3, Mus musculus, UniProt Q91XE4) | enzyme activity |  | 1 mM |  | inhibited
Cl.NCC(O)c1cc(O)c(O)cc1F (stereo not drawn) | Genome polyprotein NS3 helicase domain | DNA binding, inhibitor | hepatitis C virus | 100 µM, together with: Cy5-dT15 DNA |  | 1%
C#Cc1n[nH]c2c(-c3cn([C@@H](C)c4ccccc4)c(=O)[nH]c3=O)cc(F)cc12 | Phosphatidylinositol 4,5-bisphosphate 3-kinase catalytic subunit beta isoform, with p85 alpha (PIK3CB, Homo sapiens, UniProt P42338) | kinase activity, inhibitor |  | 100 nM |  | -2.8%
CC(C)(C)c1cc(C=C(C#N)C#N)cc(C(C)(C)C)c1O | Genome polyprotein NS3 helicase domain | DNA binding, inhibitor | hepatitis C virus | 100 µM, together with: Cy5-dT15 DNA |  | 0%
O=c1ccc2ccccc2o1 | PTGS2 (Homo sapiens, UniProt P35354) | enzyme activity |  | 10 µM |  | -5.04%
C/C(O)=C(\C#N)C(=O)Nc1cc(Br)ccc1Br | Genome polyprotein NS3 helicase domain | DNA binding, inhibitor | hepatitis C virus | 100 µM, together with: Cy5-dT15 DNA |  | 1%
CN(CCN1CCC(OC(=O)Nc2ccccc2-c2ccccc2)CC1)C(=O)c1ccc(CN2CCC(C(N)=O)CC2)cc1 | guanylyl cyclase | enzyme activity |  | 1 µM |  | 4%
NNC(=O)c1ccc(O)cc1 | Genome polyprotein NS3 helicase domain | DNA binding, inhibitor | hepatitis C virus | 100 µM, together with: Cy5-dT15 DNA |  | 1%
COc1cc(Nc2ncc(F)c(Nc3ccc4c(n3)NC(=O)C(C)(C)O4)n2)cc(OC)c1OC | CDK13 (Homo sapiens, UniProt Q14004) | binding, KINOMEscan |  | 10 µM, CDC2L5 kinase |  | 0%
O=c1c(Cl)c(Cl)cnn1Cc1nc2ccccc2c2ccccc12 | Trypanothione synthetase (Leishmania infantum, UniProt A4I2Z3) | enzyme activity |  | 25 µM |  | 19.7 ± 7.4%
CC[C@H](C)[C@H](NC(=O)[C@@H](NC(=O)[C@H](N)Cc1ccccc1)C(C)C)C(=O)N[C@@H](C)C(N)=O | APP (Homo sapiens, UniProt P05067) | aggregation, inhibitor, thioflavin T fluorescence |  | 2 µM |  | 91.8%
CN1CC[C@]2(CCN3CCc4c(oc5ccccc45)[C@@H]3C2)N(C)C1=O.Cl | Genome polyprotein NS3 helicase domain | DNA binding, inhibitor | hepatitis C virus | 100 µM, together with: Cy5-dT15 DNA |  | 3%
O=C(Nc1cccnn1)N1CCC(=Cc2cccc(Oc3ccc(C(F)(F)F)cn3)c2)CC1 | PTGFR (Homo sapiens, UniProt P43088) | radioligand binding, inhibitor |  | 50 µM, human, together with: [3H]PGF2alpha |  | 82%
COCc1c(-c2cc3cc(C)cc(OC)c3s2)c2c(N)ncnn2c1CN1CCNC(=O)C1 | angiotensin-converting enzyme | enzyme activity |  | 10 µM |  | 11%
COc1ccc(N2C(=O)N(c3c(C)cccc3Cl)Cc3cnc(Nc4ccc(C5CCN(C)CC5)cc4OC)nc32)nc1 | ACVR1B (Homo sapiens, UniProt P36896) | kinase activity, inhibitor |  | 0.5 µM, ALK4 |  | -54%

Repeated from above:
Structure (SMILES) | target | assay | system | conditions | how to read | inhibition
CC1=NN=C(c2ccc(N)cc2)c2cc3c(cc2C1)OCO3.Cl | Genome polyprotein NS3 helicase domain | DNA binding, inhibitor | hepatitis C virus | 100 µM, together with: Cy5-dT15 DNA |  | 3%
O=C(Nc1cccnn1)N1CCN([C@@H]2CCOc3cc(C(F)(F)F)ccc32)CC1 | HTR6 (Homo sapiens, UniProt P50406) | Cerep BioPrint |  | 20 µM, human 5-HT6 |  | 50%
CN(C(=O)n1cnc(-c2ccc[n+]([O-])c2)c1)C1CCCCC1 | GABA transporter, rat | binding |  | 10 µM, together with: [3H]GABA |  | -4%
